# Experimental data gathered from unrelated publications.
# Compare with care: the assays were run in different laboratories. ± gives the spread as reported.
SMILES,system,setting,quantity,result
CN[C@](C)(C[18F])C(=O)O,"SCID mouse A549 xenograft, brain","30 min, post injection",tissue uptake,0.3 ± 0.03 %ID/g
N=C(N)NCc1ccc(C(=O)NCCCC[C@H](NC(=O)CCCCCCC(=O)NCCCC[C@H](NC(=O)N[C@@H](CCC(=O)O)C(=O)O)C(=O)O)C(=O)O)cc1[131I],"SCID mouse, PC-3 xenografts, heart",1 h,tissue uptake,0.46 ± 0.18 %ID/g
C=Cc1cc(O)cc2nc(-c3ccc(O)c([76Br])c3)oc12,"female C57BL/6 mouse, ovaries","1 h, high dose",tissue uptake,0.19 ± 0.05 %ID/g
N=C(N)NCc1ccc(C(=O)NCCCC[C@H](NC(=O)N[C@@H](CCC(=O)O)C(=O)O)C(=O)O)cc1[131I],"SCID mouse, PC-3 xenografts, muscle",14 h,tissue uptake,0.03 ± 0.02 %ID/g
C[S]1CC[S]2CC[P](CO)(CO)[99Tc+]12.[C-]#[O+].[C-]#[O+].[C-]#[O+],"female CF-1 mouse, carcass","intravenous, 4 h",tissue uptake,2.9 %ID
Cn1cc(-c2cccc(CN3CCC4(CC3)COc3c4ccc4c3CN([C@H]3CCC(=O)NC3=O)C4=O)c2)cn1,"mouse Crbn I391V, spleen","oral, 10 mg/kg, 6 h",tissue concentration,186 ng/g
COC(=O)C[C@](O)(CCCC(C)(C)OC(C)=O)C(=O)O[C@@H]1C(OC)=C[C@]23CCCN2CCc2cc4c(cc2[C@H]13)OCO4,"CD1 mouse, kidney","oral, 1 mg/kg, 8 h, below quantification limit 1.00 ng/mL",tissue concentration,not detected
N=C(N)NCc1ccc(C(=O)NCCCC[C@H](NC(=O)CCCCCCC(=O)NCCCC[C@H](NC(=O)N[C@@H](CCC(=O)O)C(=O)O)C(=O)O)C(=O)O)cc1[211At],"SCID mouse, PC-3 xenografts, liver",1 h,tissue uptake,5.11 ± 4.13 %ID/g
CCCCCCCC(=O)NCCCC[C@H](NC(=O)[C@H](Cc1ccccc1)NC(=O)[C@@H](CCCNC(=N)N)NC(=O)[C@@H](N)Cc1ccc(O)cc1)C(N)=O,"CD-1 mouse, male, liver","intravenous, 3 mg/kg, 180 min",tissue concentration,563 ± 107 ng/g

# Some of these lines once more:
SMILES,system,setting,quantity,result
Cn1cc(-c2cccc(CN3CCC4(CC3)COc3c4ccc4c3CN([C@H]3CCC(=O)NC3=O)C4=O)c2)cn1,"mouse Crbn I391V, spleen","oral, 10 mg/kg, 6 h",tissue concentration,186 ng/g
